Assay results of several laboratories.
Compare with care: the assays were run in different laboratories. ± gives the spread as reported.

CC(C)C[C@H](NC(=O)[C@H](CCCCN)NC(=O)OCC1c2ccccc2-c2ccccc21)C(=O)N[C@H](C(=O)N[C@@H](Cc1ccccc1)C(=O)N[C@@H](Cc1ccccc1)C(=O)N[C@@H](CCCCN)C(=O)NCC(=O)N[C@@H](Cc1ccccc1)C(=O)N[C@@H](C)C(=O)N[C@@H](Cc1c[nH]c2ccccc12)C(=O)N[C@@H](CC(N)=O)C(=O)N[C@H](C(=O)N[C@H]1CSSC[C@@H](C(=O)N[C@@H](Cc2c[nH]cn2)C(=O)N[C@@H](CCCNC(=N)N)C(=O)N[C@@H](CCCNC(=N)N)C(=O)N[C@@H](C)C(=O)N[C@@H](CC(N)=O)C(N)=O)NC(=O)[C@H](C(C)C)NC(=O)[C@H](CCCNC(=N)N)NC(=O)[C@H](C(C)C)NC(=O)CNC(=O)[C@H](CC(N)=O)NC(=O)[C@H](CCCNC(=N)N)NC(=O)[C@H](Cc2ccc(O)cc2)NC(=O)[C@H](C(C)C)NC1=O)C(C)C)C(C)C
AST/ALT ratio (ICR mice, serum; intraperitoneal, 5 mg/kg, day 5; reference: AST over ALT): 0.52 ± 0.04

Cc1cc(C)c(CNC(=O)c2cc(Cl)c3c(c2C)O[C@@](C)([C@H]2CC[C@H](N(C)C)CC2)O3)c(=O)[nH]1
Neutropenia incidence (human, relapsed/refractory NHL; concentration not given, all TEAEs, grade 5): 0%

NC(=O)N1c2ccccc2C=Cc2ccccc21
participants with adverse events (human; oral, dose not given, 25 days, dose up-titration): 100%

CC(=O)c1c(C)c2cnc(Nc3ccc(C4CCN(CCS(C)(=O)=O)CC4)cn3)nc2n(C2CCCC2)c1=O
Tmax (human, plasma; oral, 100 mg twice daily, single dose, monotherapy): 1.5 h

CO[C@H]1C[C@@H]2CC[C@@H](C)[C@@](O)(O2)C(=O)C(=O)N2CCCC[C@H]2C(=O)O[C@H]([C@H](C)C[C@@H]2CC[C@@H](OC(=O)NCCOCCOCCOCCOCCOCCOCCOCCOCCC(=O)N3CCc4cc(Cn5nc(-c6ccc7oc(N)nc7c6)c6c(N)ncnc65)ccc4C3)[C@H](OC)C2)C[C@@H](O)[C@H](C)/C=C(\C)[C@@H](O)[C@@H](OC)C(=O)[C@H](C)C[C@H](C)/C=C/C=C/C=C/1C
TRAE incidence (phase 1 dose escalation, refers to: mucositis; advanced solid tumour patients; intravenous, 10 mg weekly, grade ≥3): 12.5%

C[C@]1(CO)Cc2ncn(-c3ccc(C#N)c(Cl)c3)c2C(=O)O1
drug-related Fatigue incidence (healthy humans; 10 mg, fasted): 0%

O=C(NCc1ccccc1Cl)C1CCCN(Cc2cccc(-c3ccc(F)cc3F)c2)C1 (stereo not drawn)
cytotoxicity efficacy (Vero-E6; CellTiter-Glo ATP; concentration not given, 72 h, retest 8-point duplicates; reference: DMSO 0%, hyamine -100%, more negative, more toxic): -33.5%

CC(C)[C@@H]1NC(=O)CNC(=O)[C@H](CC(N)=O)NC(=O)[C@H](CCCNC(=N)N)NC(=O)[C@H](Cc2ccc(O)cc2)NC(=O)[C@H](C(C)C)NC(=O)[C@@H](NC(=O)[C@@H](NC(=O)[C@H](CC(N)=O)NC(=O)[C@H](Cc2c[nH]c3ccccc23)NC(=O)[C@H](C)NC(=O)[C@H](Cc2ccccc2)NC(=O)CN)C(C)C)CSSC[C@@H](C(=O)N[C@@H](Cc2c[nH]cn2)C(=O)N[C@@H](CCCNC(=N)N)C(=O)N[C@@H](CCCNC(=N)N)C(=O)N[C@@H](C)C(=O)N[C@@H](CC(N)=O)C(N)=O)NC(=O)[C@H](C(C)C)NC(=O)[C@H](CCCNC(=N)N)NC1=O
secondary structure content (circular dichroism, refers to: β-Turn; PBS; 80 µM, pH 7.4, added: LPS 1 µM): 21.2%

COc1ccc(-c2c(-c3ccc(C#N)c(F)c3)nc(N3CCC(N)CC3)n(C)c2=O)cc1F
any-grade TRAE incidence (refers to: ≥1 event; neuroendocrine neoplasm patients; oral, 60 mg, dose expansion): 94%

COc1cc2c(Oc3ccc4[nH]c(C)cc4c3F)ccnc2cc1OCC1(N)CC1
grade 3 Hypertension (paediatric recurrent refractory sarcoma; 8 mg): 0%

COc1ccc(-c2nc(CN3CCC(C(=O)NCCCN4CCN(c5ccccc5F)CC4)CC3)c(C)o2)cc1OC
cytotoxicity efficacy (Vero-E6; CellTiter-Glo ATP; concentration not given, 72 h, second round 5-point; reference: DMSO 0%, hyamine -100%, more negative, more toxic): -24.3%

COc1ncccc1-c1cnn2ccc(N3CCN(C(=O)OC(C)C)CC3)nc12
free plasma concentration (mouse, open field test, plasma; oral, 60 mg/kg, 60 min): 338 nM

COc1ncnn2ccc(-c3cnc4nc(C)n(Cc5nnc([C@@H](C)F)o5)c4c3)c12
patients with vomiting (human; oral, dose not given, grade 2): 14.3%

O=C(c1ccc(F)c(F)c1Nc1ccc(I)cc1F)N1CC(O)([C@@H]2CCCCN2)C1
related AE dose modification (patients aged sample A to sample B years; oral, dose not given): 29%

CN1CC[C@@H](c2c(O)cc(O)c3c(=O)cc(-c4ccc(C(F)(F)F)cc4Cl)oc23)[C@@H]1CO
patients with adverse event (refers to: Lymphopenia; relapsed B-cell malignancies; oral, 200 mg, grade 3-4, intermittent dosing): 0%
